Published values from different studies.
Protocols differ between the studies behind these lines.
HTR1F: 5-hydroxytryptamine receptor 1F (HTR1F, Homo sapiens, UniProt P30939)
Chain of UniProt P30939 (whole entry, looked up): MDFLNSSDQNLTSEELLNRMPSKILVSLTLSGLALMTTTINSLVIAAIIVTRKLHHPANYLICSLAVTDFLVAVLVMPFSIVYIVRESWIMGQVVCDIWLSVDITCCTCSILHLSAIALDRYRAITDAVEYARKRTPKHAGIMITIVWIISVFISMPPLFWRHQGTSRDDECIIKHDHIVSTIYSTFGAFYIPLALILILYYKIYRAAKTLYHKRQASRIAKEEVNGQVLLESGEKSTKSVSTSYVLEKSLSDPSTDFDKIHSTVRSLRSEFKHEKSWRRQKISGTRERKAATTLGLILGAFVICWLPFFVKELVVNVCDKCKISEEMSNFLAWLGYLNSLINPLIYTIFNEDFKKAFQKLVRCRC
MTNR1A: Melatonin receptor type 1A (MTNR1A, Homo sapiens, UniProt P48039)
Chain of UniProt P48039 (whole entry, looked up): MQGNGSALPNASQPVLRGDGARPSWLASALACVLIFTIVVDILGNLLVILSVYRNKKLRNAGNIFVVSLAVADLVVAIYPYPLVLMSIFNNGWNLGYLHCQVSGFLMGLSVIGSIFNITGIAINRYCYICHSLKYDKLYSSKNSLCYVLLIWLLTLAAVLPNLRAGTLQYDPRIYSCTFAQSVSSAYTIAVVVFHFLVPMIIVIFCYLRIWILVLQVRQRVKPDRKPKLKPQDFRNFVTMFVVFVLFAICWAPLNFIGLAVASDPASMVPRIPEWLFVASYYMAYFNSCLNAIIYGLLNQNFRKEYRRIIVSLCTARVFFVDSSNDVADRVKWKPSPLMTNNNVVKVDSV
MTNR1B: Melatonin receptor type 1B (MTNR1B, Homo sapiens, UniProt P49286)
Chain of UniProt P49286 (whole entry, looked up): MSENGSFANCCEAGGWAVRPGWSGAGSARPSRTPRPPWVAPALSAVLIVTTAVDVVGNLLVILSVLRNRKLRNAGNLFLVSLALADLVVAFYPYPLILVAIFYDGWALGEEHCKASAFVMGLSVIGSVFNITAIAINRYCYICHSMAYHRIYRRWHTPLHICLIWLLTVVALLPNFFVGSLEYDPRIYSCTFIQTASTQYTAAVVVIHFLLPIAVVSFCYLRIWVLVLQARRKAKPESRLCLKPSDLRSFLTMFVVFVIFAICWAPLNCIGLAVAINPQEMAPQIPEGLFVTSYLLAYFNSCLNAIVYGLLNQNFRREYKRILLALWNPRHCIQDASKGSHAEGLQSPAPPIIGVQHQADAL
AVPR2: Vasopressin V2 receptor (AVPR2, Homo sapiens, UniProt P30518)
Chain of UniProt P0DMS8 (whole entry, unmodified, looked up): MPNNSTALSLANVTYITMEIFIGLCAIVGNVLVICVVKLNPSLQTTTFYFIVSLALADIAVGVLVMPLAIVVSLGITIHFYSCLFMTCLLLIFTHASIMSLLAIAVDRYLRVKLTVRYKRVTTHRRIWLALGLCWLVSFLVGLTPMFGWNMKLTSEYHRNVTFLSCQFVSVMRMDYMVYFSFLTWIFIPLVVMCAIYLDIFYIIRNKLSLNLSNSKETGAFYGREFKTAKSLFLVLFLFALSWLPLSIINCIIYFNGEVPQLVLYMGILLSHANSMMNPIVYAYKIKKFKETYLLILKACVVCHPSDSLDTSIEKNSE
Chain of UniProt P30518 (whole entry, looked up): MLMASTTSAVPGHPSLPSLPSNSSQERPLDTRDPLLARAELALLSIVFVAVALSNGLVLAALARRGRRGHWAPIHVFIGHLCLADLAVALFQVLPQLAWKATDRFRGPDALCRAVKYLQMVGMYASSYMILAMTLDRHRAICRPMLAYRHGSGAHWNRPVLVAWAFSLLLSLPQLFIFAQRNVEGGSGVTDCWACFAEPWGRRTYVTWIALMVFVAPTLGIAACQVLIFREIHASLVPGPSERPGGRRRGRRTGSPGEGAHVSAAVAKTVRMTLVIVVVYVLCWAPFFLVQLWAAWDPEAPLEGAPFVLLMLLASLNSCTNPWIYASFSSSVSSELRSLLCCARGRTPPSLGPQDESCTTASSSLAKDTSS
Chain of UniProt P10276 (whole entry, looked up): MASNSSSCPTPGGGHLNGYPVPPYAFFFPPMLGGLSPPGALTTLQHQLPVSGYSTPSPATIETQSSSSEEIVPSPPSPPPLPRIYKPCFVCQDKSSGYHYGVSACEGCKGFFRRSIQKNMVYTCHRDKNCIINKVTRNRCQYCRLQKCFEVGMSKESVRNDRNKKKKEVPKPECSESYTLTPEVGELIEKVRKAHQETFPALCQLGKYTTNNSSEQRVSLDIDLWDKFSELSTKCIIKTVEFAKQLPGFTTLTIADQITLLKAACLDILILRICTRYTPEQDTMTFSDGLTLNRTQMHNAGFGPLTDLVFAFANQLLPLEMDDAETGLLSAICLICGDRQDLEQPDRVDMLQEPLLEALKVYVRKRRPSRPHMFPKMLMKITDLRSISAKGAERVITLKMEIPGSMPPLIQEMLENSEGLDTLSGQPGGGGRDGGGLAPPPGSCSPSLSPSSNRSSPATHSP
Chain of UniProt P34972 (whole entry, looked up): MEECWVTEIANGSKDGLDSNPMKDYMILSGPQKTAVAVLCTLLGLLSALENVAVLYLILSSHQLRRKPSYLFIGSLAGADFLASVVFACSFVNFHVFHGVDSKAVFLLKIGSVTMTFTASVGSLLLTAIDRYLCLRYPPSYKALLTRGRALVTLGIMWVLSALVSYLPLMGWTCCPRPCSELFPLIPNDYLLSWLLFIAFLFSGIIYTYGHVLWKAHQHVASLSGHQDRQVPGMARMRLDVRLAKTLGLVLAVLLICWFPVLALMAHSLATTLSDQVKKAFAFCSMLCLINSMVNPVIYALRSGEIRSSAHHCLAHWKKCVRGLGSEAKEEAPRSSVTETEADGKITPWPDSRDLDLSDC
Chain of UniProt Q9NQS5 (whole entry, looked up): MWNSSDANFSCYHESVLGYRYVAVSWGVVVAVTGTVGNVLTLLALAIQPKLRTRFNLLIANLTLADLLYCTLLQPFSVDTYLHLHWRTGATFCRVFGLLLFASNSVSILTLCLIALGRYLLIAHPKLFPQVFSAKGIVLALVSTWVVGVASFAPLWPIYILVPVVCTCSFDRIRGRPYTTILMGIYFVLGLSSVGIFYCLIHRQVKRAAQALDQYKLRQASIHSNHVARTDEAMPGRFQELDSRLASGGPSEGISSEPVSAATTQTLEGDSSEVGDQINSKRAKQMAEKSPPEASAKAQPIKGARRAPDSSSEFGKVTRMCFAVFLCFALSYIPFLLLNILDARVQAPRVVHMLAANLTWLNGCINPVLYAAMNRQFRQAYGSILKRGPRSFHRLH

CCCN1C[C@H](CSC)C[C@@H]2c3cccc4[nH]cc(c34)C[C@H]21
EC50 (HTR1F; G protein activation, agonist, BRET): 0.807 µM

CN(C)c1ncnc2c1ncn2[C@@H]1O[C@H](CO)[C@@H](O)[C@H]1O
EC50 (Adenosine receptor A3 (ADORA3, Homo sapiens, UniProt P0DMS8, I253F); G protein activation, agonist): 13 µM

COC(=O)c1sc(N(C)Cc2cccc(O)c2)nc1Cl
EC50 (MTNR1A; cAMP, agonist, luciferase): 0.0221 µM

CCc1ccc(C2=CC(C)(C)Sc3ccc(C#Cc4ccc(C(=O)O)cc4)cc32)cc1
EC50 (Retinoic acid receptor alpha (RARA, Homo sapiens, UniProt P10276); reporter gene, antagonist, luciferase): 0.00018 µM

COC(=O)c1cccc(N(C)CC2CCCC2O)n1 (stereo not shown)
EC50 (MTNR1A; cAMP, agonist, luciferase): 0.0213 µM

CN1CCc2cc(Cl)c(O)cc2[C@@H](c2ccccc2)C1
EC50 (HTR1F; G protein activation, agonist, BRET): 3.35 µM

CCOc1cccc(CNc2cccnc2)c1
EC50 (MTNR1A; cAMP, agonist, luciferase): 0.0445 µM

COc1ccc2[nH]cc(CCNC(C)=O)c2c1I
EC50 (MTNR1B; β-arrestin recruitment, agonist): 0.0525 µM

CCCCC/C=C\C/C=C\C/C=C\Cc1ccccc1CCCC(=O)OC(CO)CO
EC50 (Cannabinoid receptor 2 (CNR2, Homo sapiens, UniProt P34972); β-arrestin recruitment, agonist): 1.94 µM

COc1ccc(CC2NCCc3c2[nH]c2ccc(C)cc32)c(Cl)c1OC (stereo not shown)
EC50 (HTR1F; G protein activation, agonist, BRET): 0.64 µM

CC1=NN(/C(=N/c2nnc(C)s2)Nc2ccc(C)c(C)c2)C(c2ccc(-c3cccc(C(F)(F)F)c3)cc2)S1 (stereo not shown)
EC50 (AVPR2; cAMP, positive allosteric modulator): > 50 µM

CC(=O)NCCc1c(Cc2ccccc2)[nH]c2ccccc12
EC50 (MTNR1B; GTPγS binding, agonist, radiometric; cell membranes): 0.0191 µM

CC(C)=CCNc1ncnc2c1ncn2[C@@H]1O[C@H](CO)[C@@H](O)[C@H]1O
EC50 (Adenosine receptor A3 (ADORA3, Homo sapiens, UniProt P0DMS8, L264N); G protein activation, agonist): 1.6 µM

COc1ccc(CNc2ccc(C)nc2)cc1
EC50 (MTNR1A; cAMP, agonist, luciferase): 1.24 µM

CC1=NN(/C(=N\c2cccnc2)Nc2nnc(C)s2)C(c2ccc(C)cc2)S1 (stereo not shown)
EC50 (AVPR2; cAMP, positive allosteric modulator): > 50 µM

COc1c(F)cc(F)cc1NCc1ccc(-c2ccn[nH]2)o1
EC50 (MTNR1A; cAMP, agonist, luciferase): 0.102 µM

O=c1cc(N2CCN(c3ccc(Cl)cc3)CC2)[nH]c(=O)[nH]1
EC50 (G-protein coupled receptor 84 (GPR84, Homo sapiens, UniProt Q9NQS5); cAMP, agonist): 0.151 µM

COc1ccc(CNc2cccnc2C)cc1
EC50 (MTNR1A; cAMP, agonist, luciferase): 1.63 µM

COCC(CNC(C)=O)c1cccc2ccc(OC)cc12 (stereo not shown)
EC50 (MTNR1B; cAMP, agonist, TR-FRET): 0.0214 µM

A few entries again:
COc1c(F)cc(F)cc1NCc1ccc(-c2ccn[nH]2)o1
EC50 (MTNR1A; cAMP, agonist, luciferase): 0.102 µM

COc1ccc(CNc2cccnc2C)cc1
EC50 (MTNR1A; cAMP, agonist, luciferase): 1.63 µM
